Results of several laboratories.
Numbered parts are unrelated; each lists some results of a single study. Changes are numbered by the printed parent chain.

Series 1 — target: CCND3, cyclin fold, Cln2 fusion (human); method: yeast growth competition, sequencing; medium: yeast; setting: weak parent motif; baseline: not given; reading: higher = stronger binding; quantity: normalised enrichment score
Starting sequence: RB1 docking peptide (human); PKPLKKLRFDIEG; partner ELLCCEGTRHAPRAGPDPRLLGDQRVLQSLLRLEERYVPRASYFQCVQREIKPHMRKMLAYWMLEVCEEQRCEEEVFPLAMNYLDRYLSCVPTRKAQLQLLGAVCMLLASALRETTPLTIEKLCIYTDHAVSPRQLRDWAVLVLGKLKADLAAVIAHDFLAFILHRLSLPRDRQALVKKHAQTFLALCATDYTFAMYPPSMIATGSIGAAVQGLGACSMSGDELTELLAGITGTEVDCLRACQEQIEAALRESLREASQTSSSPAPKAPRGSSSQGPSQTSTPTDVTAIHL
P3D: 0.213
I11N: 0.204
K2D: 0.081
L7F: 0.0667
K2M: 0.0918
G13W: 0.113
D10T: 0.0341
L4R: 0.0921
I11C: 0.138
D10H: 0.203
I11T: 0.0649
L4C: 0.0954
K6F: 0.0642
K6G: 0.154
L7A: 0.188
K2Y: 0.12
P3W: 0.168
L7N: 0.163
I11W: 0.0525

Series 2 — method: protein-binding microarray; molecule type: double-stranded DNA, one strand shown; medium: in vitro; tested at: 0.8 µM; setting: whole 60-bp probe, no competitor; reading: higher = stronger binding; quantity: fluorescence intensity; constant ends, left off below: … GTCTTGATTCGCTTGACGCTGCTG
Target: Centromere-binding protein 1, full length, N-terminal tag (CBF1, Saccharomyces cerevisiae, UniProt P17106, residues 1-351)
UniProt P17106, sequence (whole entry, looked up): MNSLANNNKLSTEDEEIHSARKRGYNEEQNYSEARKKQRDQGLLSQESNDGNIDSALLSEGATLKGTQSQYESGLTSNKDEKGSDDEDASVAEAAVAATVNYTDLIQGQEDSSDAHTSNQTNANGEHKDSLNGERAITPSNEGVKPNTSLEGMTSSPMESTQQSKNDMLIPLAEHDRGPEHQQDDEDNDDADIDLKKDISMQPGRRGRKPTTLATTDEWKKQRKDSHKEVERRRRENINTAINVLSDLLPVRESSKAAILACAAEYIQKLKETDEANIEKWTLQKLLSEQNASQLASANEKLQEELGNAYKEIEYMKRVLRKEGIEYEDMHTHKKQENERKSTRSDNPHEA
CTACCATTAAATTGTCACCTTACTCTCGGAAAATTC: 630 a.u.
CTAGAACCCATACCTCACGTTTGAAATTGACACTTC: 541 a.u.
GAATCGGATAGCTTCCGTGCGCAACCACATTACTAG: 500 a.u.
GAAATCTTATAAGGGTTCGTGATGCTCCTGAATTAG: 515 a.u.
CTACAGAAGACGTGCCGCGTGATTCCAAAGGTGTTC: 1040 a.u.
CTACTTCCTGAAACCCACGCGTCACTGCTATACTTC: 519 a.u.
CTACCACACACCGCGCACACGTGCTTTATTTCTTTC: 5110 a.u.
CCTAACTACTATACCCTTACATCATAGCTTCGTACA: 539 a.u.
GAACTATTTCGGTAACATCAAATATTTGTCAACTAG: 491 a.u.
GAAACAAGTAGTGTCTTCATGACGGATTCATAGTAG: 511 a.u.
GAAGTTAGACAAAATCACGCTTTTTCATTGGGATAG: 705 a.u.
CTAATGTAGTATGCGCACCTGATGCGCATAATATTC: 1250 a.u.
GAAACTACGATGTTGTACGTGATCGAGAAAATTTAG: 814 a.u.
CTATCAGCGTTGCATTACGTGGTGTCCGGTCGCTTC: 588 a.u.
CTAACTTTTCCTAACGGTGTGACCATATTGTACTTC: 792 a.u.
GAATTTTTTAATGGTCATCACAGCCCCTGCTGATAG: 516 a.u.

Mixed results
TRAP1 (Homo sapiens, UniProt Q12931)
cross-linked residues (ELAC2 (Homo sapiens, UniProt Q9BQ52); cross-linking MS; cell fractions; together with: DSSO): K466 to T488

PhoQ, residues 284 288 289 292 302 303 AANNSF
fold induction (PhoP, residues 12 14 15 18 19 QWHVF (Escherichia coli, UniProt P23836); Sort-seq, item: YFP reporter; E. coli; PhoQ-PhoP variant library, together with: 10 µM Mg2+; baseline: high Mg2+ state, higher = stronger signaling): 1.74

AGPS (Homo sapiens, UniProt O00116)
cross-linked residues (GNPAT (Homo sapiens, UniProt O15228); cross-linking MS; cell fractions; together with: DMTMM): E79 to K90

HNRNPU (Homo sapiens, UniProt Q00839)
cross-linked residues (KRR1 (Homo sapiens, UniProt Q13601); cross-linking MS; cell fractions; together with: DSSO): K352 to S128

CEP120 (Homo sapiens, UniProt Q8N960)
cross-linked residues (RRBP1 (Homo sapiens, UniProt Q9P2E9); cross-linking MS; cell fractions; together with: DMTMM): K365 to D1386

Excerpt of the above (series 2):
CTATCAGCGTTGCATTACGTGGTGTCCGGTCGCTTC: 588 a.u.
CTAACTTTTCCTAACGGTGTGACCATATTGTACTTC: 792 a.u.
GAATTTTTTAATGGTCATCACAGCCCCTGCTGATAG: 516 a.u.
